Experimental data from different studies.
Parts stem from different laboratories: compare values within a part only. Changes are numbered by the printed parent chain.
Sequence of UniProt Q9XFM0 (whole entry, looked up): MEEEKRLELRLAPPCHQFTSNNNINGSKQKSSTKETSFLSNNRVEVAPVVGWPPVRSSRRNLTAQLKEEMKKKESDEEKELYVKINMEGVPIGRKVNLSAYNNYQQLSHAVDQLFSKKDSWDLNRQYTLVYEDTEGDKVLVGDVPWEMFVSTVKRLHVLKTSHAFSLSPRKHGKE
Sequence of UniProt O23661 (whole entry, looked up): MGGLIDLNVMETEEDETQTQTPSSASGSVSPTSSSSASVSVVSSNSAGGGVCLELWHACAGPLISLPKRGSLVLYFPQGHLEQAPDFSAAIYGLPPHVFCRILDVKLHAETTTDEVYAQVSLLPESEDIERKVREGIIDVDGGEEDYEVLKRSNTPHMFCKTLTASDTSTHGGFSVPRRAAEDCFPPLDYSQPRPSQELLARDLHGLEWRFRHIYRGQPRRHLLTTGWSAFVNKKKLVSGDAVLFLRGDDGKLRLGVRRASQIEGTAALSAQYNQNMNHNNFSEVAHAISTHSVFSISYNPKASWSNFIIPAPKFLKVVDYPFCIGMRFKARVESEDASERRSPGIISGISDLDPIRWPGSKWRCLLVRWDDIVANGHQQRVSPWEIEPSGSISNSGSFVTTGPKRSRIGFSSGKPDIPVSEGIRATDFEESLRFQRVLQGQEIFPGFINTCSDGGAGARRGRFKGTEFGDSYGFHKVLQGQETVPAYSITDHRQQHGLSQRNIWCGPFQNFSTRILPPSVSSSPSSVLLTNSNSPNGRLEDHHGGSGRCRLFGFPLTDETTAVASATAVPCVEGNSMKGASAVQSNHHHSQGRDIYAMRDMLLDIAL
Sequence of UniProt Q9ZTX8 (whole entry, looked up): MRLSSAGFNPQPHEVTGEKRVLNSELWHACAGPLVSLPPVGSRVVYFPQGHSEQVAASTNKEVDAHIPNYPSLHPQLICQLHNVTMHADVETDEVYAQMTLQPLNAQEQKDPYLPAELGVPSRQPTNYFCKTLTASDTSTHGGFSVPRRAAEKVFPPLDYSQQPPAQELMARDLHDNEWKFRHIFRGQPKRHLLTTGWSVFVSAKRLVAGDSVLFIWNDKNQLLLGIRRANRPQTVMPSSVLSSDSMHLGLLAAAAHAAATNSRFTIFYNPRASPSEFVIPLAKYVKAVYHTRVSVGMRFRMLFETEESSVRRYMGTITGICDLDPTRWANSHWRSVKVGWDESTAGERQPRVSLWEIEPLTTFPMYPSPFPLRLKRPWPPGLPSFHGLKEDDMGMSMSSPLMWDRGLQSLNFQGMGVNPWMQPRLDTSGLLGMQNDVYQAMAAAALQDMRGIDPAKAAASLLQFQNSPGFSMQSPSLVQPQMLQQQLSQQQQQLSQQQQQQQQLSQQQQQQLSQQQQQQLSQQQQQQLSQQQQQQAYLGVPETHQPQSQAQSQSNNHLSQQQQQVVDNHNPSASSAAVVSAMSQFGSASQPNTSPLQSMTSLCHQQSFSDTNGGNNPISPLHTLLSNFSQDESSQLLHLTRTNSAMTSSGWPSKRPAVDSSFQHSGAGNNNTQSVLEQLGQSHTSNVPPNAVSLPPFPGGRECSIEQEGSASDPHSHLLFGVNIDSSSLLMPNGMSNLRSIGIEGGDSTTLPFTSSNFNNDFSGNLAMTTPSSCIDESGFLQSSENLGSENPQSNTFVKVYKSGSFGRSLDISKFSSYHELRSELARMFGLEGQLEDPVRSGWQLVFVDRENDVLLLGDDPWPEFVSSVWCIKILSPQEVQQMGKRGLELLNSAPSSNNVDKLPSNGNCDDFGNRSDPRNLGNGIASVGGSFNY

Study 1
Target: Histone acetyltransferase KAT6A, winged helix 2, GST fusion (KAT6A, Homo sapiens, UniProt Q92794, residues 85-181)
Technique: protein binding microarray
Molecule type: double-stranded DNA, one strand shown
Matrix: in vitro
Tested at: not given
Setting: 8-mer, flanks averaged, mean of 2 arrays, mostly near background
Relative to: not given
Reading: higher = stronger binding
Residues (chain): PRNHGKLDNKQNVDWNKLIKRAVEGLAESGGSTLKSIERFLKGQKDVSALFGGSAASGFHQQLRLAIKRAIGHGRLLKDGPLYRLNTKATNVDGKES
| Oligonucleotide | E-score |
| --- | --- |
| ACGAGTTC | -0.00325 |
| GTCCAACA | 0.0128 |
| GCGCCACA | 0.0474 |
| AGTTAACA | 0.0818 |
| AGTATCTC | -0.0488 |
| ATCTCTGC | -0.0109 |
| GTGTCGAA | 0.0328 |
| ATCGGGAG | 0.118 |
| CGTATCAA | -0.0487 |
| AGGCCAGA | 0.116 |
| AGGTTAGC | -0.0939 |
| AGTCGCAT | 0.0589 |
| TGAGGACA | -0.0279 |
| AGAGTCCA | -0.0632 |
| CGCTTGCC | 0.138 |
| CTCAGGCA | 0.116 |
| AGCGCGGG | 0.211 |
| CATGAGAC | -0.0284 |
| ACTAAGAA | 0.0156 |
| CCGGCCTA | 0.178 |
| AGTCGAAC | -0.05 |
| ATTGTAAC | 0.0297 |
| CGATCAGA | 0.0289 |
| CTCTTAGA | 0.164 |
| GAGCACGC | 0.0418 |

Study 2
Target: BATF, bZIP domain (human)
Technique: DHFR protein complementation
Matrix: yeast
Setting: single substitutions, most at no-binding floor
Relative to: wild-type JUN-FOS pair
Reading: higher = stronger binding
Starting sequence: JUN, bZIP domain (human); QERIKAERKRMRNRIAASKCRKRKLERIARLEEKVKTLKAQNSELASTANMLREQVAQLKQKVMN; partner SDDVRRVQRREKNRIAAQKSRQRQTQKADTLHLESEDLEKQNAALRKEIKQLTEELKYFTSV
| Variant | binding fitness [natural log] |
| --- | --- |
| V56K | -1 |
| T37N | 0.122 |
| Q55N | -0.232 |
| L52A | -1.16 |
| K39A | -0.265 |
| S47Q | 0.0445 |
| K39F | -0.614 |
| K34T | -0.0434 |
| K34Q | -0.122 |
| A57S | -0.0856 |
| V35D | -0.934 |
| S47E | 0.135 |
| S43Q | 0.0873 |
| V56H | -0.479 |
| A49C | -0.0293 |
| Q41G | -0.594 |

Study 3
Target: Interferon regulatory factor 5, full length, phosphomimetic (IRF5, Homo sapiens, UniProt Q13568-2, residues 1-514, S451D/S453D/S456D/S462D)
Technique: protein-binding microarray
Molecule type: double-stranded DNA, one strand shown
Matrix: in vitro
Tested at: 940 nM top
Setting: 60-bp whole probe
Together with: salmon DNA 0.4 mg/ml
Relative to: random background probes
Reading: higher = stronger binding
Constant ends, left off below: GCCTAGCAC … GTCTTGATTCGCTTGACGCTGCTG
| Oligonucleotide | fitted relative affinity [z-score] |
| --- | --- |
| TTAGGTTTCCTTTCTCTTTAGTGCTAG | 2.72 |
| TTAGGTTTCGGGTATCGGATAGTGCTA | 10.8 |
| GACGGACTCGGTTTCGGGACGTGCTAG | 3.22 |
| TTAGGTCTCCGTCTCCTTTAGTGCTAG | 0.43 |
| GACGGAGTGGGTATCGGGACGTGCTAG | 0.872 |
| GACGGACTGCTTAGCCTGACGTGCTAG | -0.68 |
| GACGGTTTCGGTCTCGGGAAGTGCTAG | 13.7 |
| GGTATTCGGAACTTTTAGCTGTGCTAG | 0.151 |
| GACGGACTGGGTCGCGGGACGTGCTAG | -0.75 |
| TTGGAACTGAGTATCGATTAGTGCTAG | 4.22 |
| TTTTCTCTTATTCTAACAGCGTGCTAG | 2.08 |
| GACGATGTCGGGTATCGAGACGTGCTA | 0.914 |
| GACGATATCGCGTTTCGAGACGTGCTA | 0.127 |
| TCATGTATATACTATATGACTGTGCTA | -0.203 |
| GGTGTTTTACAGGTTCTCTTTGTGCTA | 0.286 |
| TTAGGTTTCCTTTTCCTTAAGTGCTAG | 2.71 |
| GGAGGCTCTTGCTACTGAAGGTGCTAG | -0.715 |
| TCATATTTACCTCTCACACTGTGCTAG | 1.02 |
| TTAGGTATCGACTAACGGTTAGTGCTA | 6.24 |
| GACGAGCTGAGACTGGAGACGTGCTAG | -0.668 |
| GACGGTTTCGGTATCGAGACGTGCTAG | 13.1 |
| GACGGTCTCCTACTGCTGCCGTGCTAG | -0.277 |
| TTAGATATCGGGGTTCGATTAGTGCTA | 0.257 |
| TGAGTAATTACATAATTACGGTGCTAG | -0.21 |

Study 4
Target: CCNA1, cyclin fold, Cln2 fusion (human)
Technique: yeast growth competition, sequencing
Matrix: yeast
Setting: weak parent motif
Relative to: not given
Reading: higher = stronger binding
Starting sequence: MASTL docking peptide (human); PMIAKNLMCELDE; partner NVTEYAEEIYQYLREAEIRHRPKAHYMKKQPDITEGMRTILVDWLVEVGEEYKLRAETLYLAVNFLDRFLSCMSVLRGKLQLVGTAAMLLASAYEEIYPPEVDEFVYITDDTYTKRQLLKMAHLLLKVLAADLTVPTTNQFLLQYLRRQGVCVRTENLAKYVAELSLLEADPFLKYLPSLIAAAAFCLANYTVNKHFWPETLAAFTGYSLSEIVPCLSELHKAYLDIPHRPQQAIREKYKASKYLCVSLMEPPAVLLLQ
| Variant | normalised enrichment score |
| --- | --- |
| L11G | 0.166 |
| L7Q | -0.0352 |
| N6Q | 0.219 |
| E10F | -0.0454 |
| A4Y | -0.188 |
| L7N | -0.0139 |
| L7W | -0.0249 |
| A4E | -0.19 |
| L7H | -0.915 |
| M2V | -0.0809 |
| L7E | 0.344 |
| L11T | 0.162 |
| M2R | 0.214 |
| L11S | -0.0226 |
| I3M | -0.132 |
| I3F | -0.0103 |
| K5Y | -0.133 |
| L11K | 0.156 |
| D12V | 0.314 |
| M8I | 0.117 |
| C9D | -0.221 |
| A4Q | -0.402 |
| M8D | 0.157 |

Study 5
Molecule: B1 (IAA18)
Technique: two-hybrid
Relative to: out of 4 tests
Reading: higher = firmer interaction
B1: IAA18 (Arabidopsis thaliana, UniProt O24408); chain MEGYSRNGEISPKLLDLMIPQERRNWFHDEKNSVFKTEEKKLELKLGPPGEEDDDESMIRHMKKEPKDKSILSLAGKYFSPSSTKTTSHKRTAPGPVVGWPPVRSFRKNLASGSSSKLGNDSTTSNGVTLKNQKCDAAAKTTEPKRQGGMFVKINMYGVPIGRKVDLSAHNSYEQLSFTVDKLFRGLLAAQRDFPSSIEDEKPITGLLDGNGEYTLTYEDNEGDKMLVGDVPWQMFVSSVKRLRVIKTSEISSALTYGNGKQEKMRR
| partner | positive tests |
| --- | --- |
| ARF6 790-935 (Arabidopsis thaliana, UniProt Q9ZTX8) | 3 |
| IAA28 (Arabidopsis thaliana, UniProt Q9XFM0) | 3 |
| ETT (Arabidopsis thaliana, UniProt O23661) | 0 |

Study 6
Target: ABI1, truncated, D143A, DHFR fusion (Arabidopsis thaliana)
Technique: DHFR PCA, deep sequencing
Matrix: yeast
Setting: methotrexate growth selection, single substitutions
Together with: (+)-ABA 1.4 µM
Relative to: wild-type fitted maximum
Reading: higher = stronger binding
Starting sequence: PYL1, truncated, DHFR fusion (Arabidopsis thaliana); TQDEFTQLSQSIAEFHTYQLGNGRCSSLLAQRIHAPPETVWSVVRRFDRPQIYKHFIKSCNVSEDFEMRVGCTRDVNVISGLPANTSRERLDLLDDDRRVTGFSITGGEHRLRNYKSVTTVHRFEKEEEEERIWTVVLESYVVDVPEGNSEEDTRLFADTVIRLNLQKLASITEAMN
| Variant | relative binding score [%] |
| --- | --- |
| V143I | -6.18 |
| E147L | 34.9 |
| W134A | 36 |
| G21N | 32.4 |
| L28A | 3.35 |
| T173S | 46.1 |
| E174I | -7.08 |
| H34W | 22.3 |
| R24A | 13.7 |
| R46E | 0.655 |
| N85I | 57.4 |
| T119I | 4.76 |
| E147I | 34.9 |
| H122L | 5.97 |
| S9W | 33.9 |
| E130R | 56.3 |
| Q51M | 3.1 |
| S63D | 57.6 |
| R69Q | 58.2 |
| A158E | -4.87 |
| I52S | 39 |
| L164D | -0.709 |

For quick reference, copied from above (study 6):
| Variant | relative binding score [%] |
| --- | --- |
| W134A | 36 |
| G21N | 32.4 |
| L28A | 3.35 |
| T173S | 46.1 |
| E174I | -7.08 |
| H34W | 22.3 |
| R24A | 13.7 |
| R46E | 0.655 |
| N85I | 57.4 |
| T119I | 4.76 |
| E147I | 34.9 |
| H122L | 5.97 |
